Experimental data gathered from unrelated publications.
Several values in a cell are separate wells, animals, samples, runs or records. Numbers after ± are the reported error.

CC(=O)c1c(C)c2cnc(Nc3ccc(C4CCN(CCS(C)(=O)=O)CC4)cn3)nc2n(C2CCCC2)c1=O — best response progressive disease (RECIST v1.1; HR+/HER2- advanced breast cancer patients; dose not given, phase Ib all arms pooled): 9.9%
CC[C@H](C)[C@@H]1NC(=O)[C@@H]2CCCN2C(=O)[C@H](CC(C)C)NC(=O)[C@H](CC(C)C)NC(=O)CNC(=O)[C@@H](NC(=O)[C@@H](NC(=O)[C@H](CC(=O)O)NC(=O)CNC(=O)[C@@H](NC(=O)[C@H](C)NC(=O)CNC(=O)[C@H](CCCCN)NC(=O)[C@H](CC(C)C)NC(=O)[C@H](CC(C)C)NC(=O)[C@H](CCCCN)NC(=O)CNC(=O)[C@@H](NC(=O)[C@@H](N)CC(C)C)C(C)C)C(C)C)C(C)C)CSSC[C@@H](C(=O)O)NC1=O — log2 fold change (RNA-seq, measured: Zfp516 mRNA; mouse traumatic brain injury, frontal cortex and hippocampus; dose not given; relative to: TBI plus compound vs TBI): -0.823
CN(C)C1(CNC(=O)c2ccc3c(c2)CCN3C(=O)c2ccccc2)CCOCC1 — reduction of cold allodynia (acetone test; mice, chronic constriction injury; intraperitoneal, 50 mg/kg, 2 h): 59%
COc1ncc(-c2nc3c(n2C(C)C)[C@H](c2ccc(Cl)cc2)N(c2cc(Cl)cn(C)c2=O)C3=O)c(OC)n1 — best overall response (antileukemic activity, measured: treatment failure, resistant disease; human, acute myeloid leukaemia; 120 mg, high-dose, RDE, IWG criteria): 62.5%
CC[C@H](C)C[C@H](C)CCCCCCCCC(=O)N[C@H]1C[C@@H](O)[C@@H](NCCN)NC(=O)[C@@H]2[C@@H](O)CCN2C(=O)[C@H]([C@H](O)CCN)NC(=O)[C@H]([C@H](O)[C@@H](O)c2ccc(O)cc2)NC(=O)[C@@H]2C[C@@H](O)CN2C(=O)[C@H]([C@@H](C)O)NC1=O — maximum fusion (calcein leakage; DOPC/CHOL liposomes; concentration not given, added: 20 wt% PEG-8000): 16 ± 2%
C[C@H]1O[C@@H](O[C@H]2CC[C@@]3(C)[C@@H](CC[C@]4(C)[C@@H]3C=C[C@]35OC[C@@]6(CCC(C)(C)C[C@H]63)[C@@H](O)C[C@]54C)[C@]2(C)CO)[C@H](O)[C@@H](O[C@@H]2O[C@H](CO)[C@@H](O)[C@H](O)[C@H]2O)[C@H]1O — body weight change (Mus musculus, pair-fed, AAV8-TBG-Null vector; oral, high dose, during administration): 2.3 g and 1.7 g and 1.4 g and 1.3 g and 2.5 g and 1.1 g
CN(C(=O)CN1C(=O)COc2cc(Cl)c(Cl)cc21)[C@@H](CN1CCCC1)c1ccc(-c2cccc(C(N)=O)c2)cc1 — distance travelled (open field test; humanized UT (+/h+) mice; dose not given): 28 m and 30 m and 31 m and 20 m and 22 m and 33 m
O=C1N(Cc2ccccc2Cl)c2ccccc2C12NN=C(c1ccccc1)S2 (stereo not shown) — increase in life span (WSU-FSCCL xenograft, mouse; intravenous, 923.8 mg/kg total): 0%
CN1CCN(S(=O)(=O)c2cc([N+](=O)[O-])ccc2N(CCOS(C)(=O)=O)CCOS(C)(=O)=O)CC1 — EFS delay (T-C) (NSG mice, sample CC PDX; intraperitoneal, 25 mg/kg weekly x3; relative to: vehicle): -0.1 days
CCCc1nn(C)c2c(=O)[nH]c(-c3cc(S(=O)(=O)N4CCN(C)CC4)ccc3OCC)nc12 — mean serum uric acid (human patients on drug, serum or plasma; dose not given, main analysis, matching 1:20; relative to: off-drug patients, 5.94 mg/dL): 6.84 mg/dL
Nc1ccccc1C(=O)[O-].[Na+] — z-scored log2 fold change (binding, equilibrium dialysis LC-MS; 5 µM, thermostabilized A2AR-BRIL construct; relative to: no-protein control, direction not given): -0.0241
O=C(N=Nc1c(O)n(CCCCCF)c2ccccc12)c1ccccc1 — response rate (C57BL/6 mice trained on THC; intraperitoneal, 3 mg/kg, THC 5.6 mg/kg discrimination; relative to: vehicle): increased
COc1cccc([C@H](O)C2CCN(CCc3ccc(F)cc3)CC2)c1OC — DOM-lever responding (antagonist, drug discrimination; rhesus monkey trained on DOM; 0.032 mg/kg, added: DOM 0.32 mg/kg): < 1%
[131I-].[Na+] — hypothyroid patients (radioiodine ablation; human hyperthyroidism patients; 185 MBq, 2 years, long-term follow-up): 62.6%
C[C@]1(CO)Cc2ncn(-c3ccc(C#N)c(Cl)c3)c2C(=O)O1 — urinary potassium excretion 0-24 h (Chinese subjects; 80 mg single dose): 32.4 mmol
CCCCC1(CCCC)CN(c2ccccc2)c2cc(SC)c(OCC(=O)N[C@@H](C(=O)NCC(=O)O)c3ccccc3)cc2S(=O)(=O)C1 — serum HDL cholesterol (human; 5 mg once daily, 120 h): 46.5 mg/dL
C[C@H](NC(=O)c1c(C(F)F)nn(C)c1Oc1cccc(C(F)(F)F)c1)c1ccc(C(=O)O)cc1 — median progression-free survival (human, advanced tumours; 500 mg): 1.3 months
CC(C)CCCCCCCCC[C@@H]1CC(=O)N[C@@H](CCC(=O)O)C(=O)N[C@@H](CC(C)C)C(=O)N[C@H](CC(C)C)C(=O)N[C@@H](C(C)C)C(=O)N[C@@H](CC(=O)O)C(=O)N[C@H](CC(C)C)C(=O)N[C@@H](CC(C)C)C(=O)O1 — maximum fusion (calcein leakage; DOPC/DOPG/CHOL liposomes; concentration not given, added: 40 mM CaCl2): 86 ± 5%
CNC(=O)c1c(C)oc2cc(Oc3ccnc4cc(OCCN5CCOCC5)ccc34)ccc12 — patients with vascular response (DCE-MRI; patients; dose not given, once daily dosing): 36%

Repeated from above:
O=C1N(Cc2ccccc2Cl)c2ccccc2C12NN=C(c1ccccc1)S2 (stereo not shown) — increase in life span (WSU-FSCCL xenograft, mouse; intravenous, 923.8 mg/kg total): 0%
